Results pooled from the literature.
Lines come from different studies, so protocols differ.
Target: 5-hydroxytryptamine receptor 1A (HTR1A, Homo sapiens, UniProt P08908)
UniProt P08908, sequence (whole entry, looked up): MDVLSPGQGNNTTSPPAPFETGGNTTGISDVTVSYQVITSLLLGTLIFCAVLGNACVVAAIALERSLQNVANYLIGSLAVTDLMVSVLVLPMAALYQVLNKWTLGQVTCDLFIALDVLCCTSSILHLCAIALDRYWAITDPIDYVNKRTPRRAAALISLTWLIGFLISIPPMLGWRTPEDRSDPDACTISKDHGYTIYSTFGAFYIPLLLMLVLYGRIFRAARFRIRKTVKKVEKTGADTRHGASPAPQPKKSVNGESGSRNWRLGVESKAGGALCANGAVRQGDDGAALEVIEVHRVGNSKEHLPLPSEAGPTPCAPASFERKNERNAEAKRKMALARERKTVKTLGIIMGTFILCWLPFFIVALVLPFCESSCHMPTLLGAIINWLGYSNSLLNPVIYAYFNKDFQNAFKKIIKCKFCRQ

| Structure (SMILES) | test | test system | conditions | how to read | endpoint | result |
| --- | --- | --- | --- | --- | --- | --- |
| CC(C)C[C@H]1C(=O)N2CCC[C@H]2[C@]2(O)O[C@](NC(=O)[C@@H]3C=C4c5cccc6[nH]c(Br)c(c56)C[C@H]4[N+](C)(C)C3)(C(C)C)C(=O)N12.[I-] | – | – | 100 nM, with: [3H]8-OH-DPAT | – | radioligand binding inhibition | no effect |
| CCCN(CCC)C1CCc2cccc(O)c2C1 (centres unmarked) | binding, agonist, radioligand binding | – | – | – | Hill coefficient | 1.2 |
| CN[C@]1(c2ccccc2Cl)CCCCC1=O | radioligand binding, agonist, radioligand displacement | – | 30 µM | – | inhibition | 11% |
| O=c1ccc2ccccc2o1 | agonist radioligand binding | – | 10 µM, SafetyScreen44 | – | inhibition | 2.44% |
| CN1CCN(c2cc(-c3ccncc3)c(-c3ccc4ccccc4c3)nn2)CC1 | agonist, FLIPR | – | 12.5 µM | – | activation | -1.4% |
| C[C@H](N)Cn1ncc2ccc3c(c21)CCCO3.Cl | inhibition, of cAMP, forskolin-induced, agonist | CHO cells | – | – | efficacy | 87% |
| CN1CCN(c2nc(N)c3ccccc3n2)CC1 | radioligand binding, radioligand competition binding | – | 0.1 µM, mean of two | relative to: control specific binding | inhibition | 5% |
| Cn1cccc1-c1cccnc1 | binding | – | 50 µM | – | inhibition | -1.38% |

A few entries again:
| Structure (SMILES) | test | test system | conditions | how to read | endpoint | result |
| --- | --- | --- | --- | --- | --- | --- |
| CN[C@]1(c2ccccc2Cl)CCCCC1=O | radioligand binding, agonist, radioligand displacement | – | 30 µM | – | inhibition | 11% |
